# Results collected from several papers.
# Every numbered part comes from another study and shows a few of its results, in no order.

# Sample 1
# Target: Ras GTPase-activating protein-binding protein 1, RRM domain (G3BP1, Homo sapiens, UniProt Q13283)
# Sequence of UniProt Q13283 (whole entry, looked up): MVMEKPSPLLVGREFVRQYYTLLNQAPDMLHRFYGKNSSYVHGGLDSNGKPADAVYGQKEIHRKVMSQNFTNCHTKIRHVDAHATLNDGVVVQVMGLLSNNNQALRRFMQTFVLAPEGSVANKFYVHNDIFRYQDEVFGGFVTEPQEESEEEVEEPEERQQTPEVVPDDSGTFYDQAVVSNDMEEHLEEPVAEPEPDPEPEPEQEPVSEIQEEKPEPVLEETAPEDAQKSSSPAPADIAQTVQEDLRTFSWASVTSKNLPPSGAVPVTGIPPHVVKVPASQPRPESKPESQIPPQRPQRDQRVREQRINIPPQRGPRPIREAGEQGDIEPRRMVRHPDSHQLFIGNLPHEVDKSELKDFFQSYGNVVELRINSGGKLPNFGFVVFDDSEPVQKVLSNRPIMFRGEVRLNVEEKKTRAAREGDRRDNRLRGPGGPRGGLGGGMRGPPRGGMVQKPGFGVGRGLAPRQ
# Technique: RNA Bind-n-Seq
# Molecule type: RNA
# Medium: in vitro
# Concentration: 1 µM
# Notes: whole 134-nt RNA, ends assumed
# Together with: 150 mM KCl
# Reference: input library
# Direction: higher = stronger binding
Sequence,log2 enrichment
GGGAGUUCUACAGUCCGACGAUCUGUGUCUUGCUGAAUCAGGGCUCUCUUAUCCCUGCCAUCGACUUACAGUGGGAAGAAGAUCUUCACCUGCACAGACCCGGGAACAGUCGGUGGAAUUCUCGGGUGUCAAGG,-0.0655
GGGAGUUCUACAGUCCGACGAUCCACAGACAACACGCACCCAGACAGACACAGAGGGAAGGGGUUGGGAUGGGGACAGGGUGCACAGCAGGGCGGGGUAGGACCCCAGCCCCUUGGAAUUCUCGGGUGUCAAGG,-0.0691
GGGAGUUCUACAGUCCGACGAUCUUCUCUCUCUCCCUUUGCAGCCGCUGUACAACCAGCCCUCCGACACCCGGCAGUAUCAUGAGAACAUCAAAAUGUGAGUGCUCGCGGGCAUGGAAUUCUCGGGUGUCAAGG,0.169
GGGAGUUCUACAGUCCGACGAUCCCUCAAGUCCUGUGCUACACAUCGUAUGUACCGAAUCGGUUUGGUGGAAAGGAAAGUAUUAUGUUACGCCGUUCGGAUCUGCACUUCCAGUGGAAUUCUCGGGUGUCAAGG,-0.217
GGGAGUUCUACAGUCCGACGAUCAGUCCUGUGCUACACAUCGUAUGUACCGAAUCGGGGUUUGGGGAAAAAGGGGUGGGGAAAGUAUUAUGUUACGCCGUUCGGAUCUGCACUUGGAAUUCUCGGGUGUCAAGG,1.23
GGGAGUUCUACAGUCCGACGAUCUCAAGUCCUGUGCUACACAUCGUAUGUACCGAAUCGGUUUUUUUGGUGGUUUGGAAAGUAUUAUGUUACGCCGUUCGGAUCUGCACUUCCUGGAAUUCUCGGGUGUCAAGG,-0.196
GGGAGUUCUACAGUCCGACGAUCCACCGACAACACGCACCCACACAGACACAGAGGGAAGGGGUUGGGAUGGGGACAGGGUGCACAGCAGGGCGGGGUAGGACCCCAGCCCCUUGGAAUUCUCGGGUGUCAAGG,-0.0481
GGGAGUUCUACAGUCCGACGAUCCCUGUGCUACACAUCGUAUGUACCGAAUCGGGGUUUUUUUGGGGUUUUUGGGGAAAGGGGAAAGUAUUAUGUUACGCCGUUCGGAUCUGCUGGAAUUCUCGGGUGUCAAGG,0.265
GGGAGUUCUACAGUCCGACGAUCCUCAAGUCCUGUGCUACACAUCGUAUGUACCGAAUCGGGAAAGGGAGGGUGGGAAAGUAUUAUGUUACGCCGUUCGGAUCUGCACUUCCAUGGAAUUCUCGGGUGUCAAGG,0.75
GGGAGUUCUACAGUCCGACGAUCGUAAGUGUGGCAAUGUGAACUGAAGCUGAUGGGCUGAGAACAUGGACUGAGCUUGUGGUGUGCUUUGCAGGAGGACUUGAAGCAGAGUUCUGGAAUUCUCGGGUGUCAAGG,0.262

# Sample 2
# Target: Histone acetyltransferase KAT6A, both winged helices, GST fusion (KAT6A, Homo sapiens, UniProt Q92794, residues 1-181)
# Technique: protein binding microarray
# Molecule type: double-stranded DNA, one strand shown
# Medium: in vitro
# Concentration: not given
# Notes: 8-mer, flanks averaged, mean of 2 arrays, mostly near background
# Reference: not given
# Direction: higher = stronger binding
# Construct (chain): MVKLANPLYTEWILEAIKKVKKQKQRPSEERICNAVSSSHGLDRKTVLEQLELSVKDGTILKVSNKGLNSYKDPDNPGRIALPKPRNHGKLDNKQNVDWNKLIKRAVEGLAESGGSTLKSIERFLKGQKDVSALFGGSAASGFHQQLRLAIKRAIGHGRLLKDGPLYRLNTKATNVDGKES
Sequence,E-score
CTCATCCA,-0.196
AGCGAAGC,-0.0202
CAAAGAAG,-0.0274
AGACGGAA,0.152
AAGATGGC,0.0116
ATATGATC,0.0395
GAAAGATA,-0.129
CTTTGGCA,-0.13
CCCCCACC,-0.189
GATGCATA,-0.0298
CCCCGCGG,0.379
TATTCTAA,-0.083
CTCACCAC,-0.112
ACATCCCC,0.0315
AGAGGGTC,-0.213
CGGCAAAA,0.203

# Sample 3
# Target: RNA binding protein fox-1 homolog 2, RRM domain, GST-SBP tag (RBFOX2, Homo sapiens, UniProt O43251-10, residues 100-194)
# Technique: RNA Bind-n-Seq
# Molecule type: RNA
# Medium: in vitro
# Concentration: 365 nM
# Notes: natural RNA segment, single round, ends assumed
# Reference: no-protein control
# Direction: higher = stronger binding
# Residues (chain): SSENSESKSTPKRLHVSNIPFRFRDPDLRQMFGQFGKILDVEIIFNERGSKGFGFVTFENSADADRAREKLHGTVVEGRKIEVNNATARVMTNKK
Sequence,RBNS enrichment (R)
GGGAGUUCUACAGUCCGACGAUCGCCCCUCUGUACCAUCCCCUCCCCUCCGCACCACUGACCUCUUGUCUCCUGUUGUUUCUGCCACAGGGACUUCCUUGGUCCCUUCAGGGAAGCCCUCAACUCAUCUCUGAUGGAAUUCUCGGGUGCCAA,0.459
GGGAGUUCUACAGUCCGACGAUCUUCAAUAAGGUGAAAUAUCAAUGAUUGGUACACAGUCACAAUGUACCGUUAAAAUAUGCACUAAGUCUCUUUUUUUUACAAAGGCUGAAUUCAGCAAGGCGCUAACUUGCUGGAAUUCUCGGGUGCCAA,0.58
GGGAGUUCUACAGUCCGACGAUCUAGCAAAAUAACAUUUCUACCCAGGAUAAUAGUCACAGUUUUCCAGGGAGGGAAUGAUAUAAUUUUCAUGACAAUGUCAUGUGAUGAUAGAAUUUCUCCAUUGAUGAAUCUGGAAUUCUCGGGUGCCAA,0.349
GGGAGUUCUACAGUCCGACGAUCUUUACAGCUCCUUUAAUAAAAUGUGUCAGUAAUUUUAAGGUUUAUAGUUCCCUCAACACAAUUGCUAAUGCAGAAUAGUGUAAAAUGCGCUUCAAGAAUGUUGAUGAUGAUGGAAUUCUCGGGUGCCAA,1.13
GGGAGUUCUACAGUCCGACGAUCUUUGUACAUUGCUUUCCCUGCCUUCUUUUUUCACGUCUGUUUUGGUGUUUGAUCCCUGCCCAGUGUUGUCGCACAGGGGAAGGGCAGAUACCAAGACCUGUCUGUUGGAUUGGAAUUCUCGGGUGCCAA,0.392
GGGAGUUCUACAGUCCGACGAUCUUGUUGACUCUGAAACUUGUCACCUUGUCACCAGCUAGAUGUCAAGACUUGGCUGCCCUCUGAUGUGGGUGCUUCUGCCCCUUCCCUGUUCUAACUGUCCGACAGGCUCCUGGAAUUCUCGGGUGCCAA,0.278
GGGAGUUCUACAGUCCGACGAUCGGGCCGAGGAGGGCGGCUGCUCUGUCAUGAGAAUGUACGGCCCGUGGAUGAUUAACGGGCCUUUUUCACUUAGAAGCUGCACAUUAUGGAGCAUUAAACACUUUUGUCAUUGGAAUUCUCGGGUGCCAA,1.25
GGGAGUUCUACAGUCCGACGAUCAGGCACACUCUUUUUUCCUUUUUCCUUAGGUUCCCAAUAUUAUUUGGUGGAAACGUGGGCUUUCUCCAAACCAAGGCCUGAGUUUCCUGUAAGGGUCCUCUGUUUUUGAUUGGAAUUCUCGGGUGCCAA,0.313
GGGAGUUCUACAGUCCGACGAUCGGGGGACCUCAGCCUCUAUUCGCAACUCAUAAUCCGUAGACUACAAGAUGAAAUCUCAAUAAAUUAUUUUUGAGUUUAUUAAAGAUUGACAUUUUAAGUACAACUUUUAAUGGAAUUCUCGGGUGCCAA,0.322
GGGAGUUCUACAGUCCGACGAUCCUGAGUGUUCAAGUACAGUUUUACAGUGGCUAAGGUUGUCUCUUGAUCUUUUUUCUCCGUUGUGUGAUCACAGAUGCUAUUUCUGUUUUAUUGGUGAUUAUACGAGACUUUGGAAUUCUCGGGUGCCAA,0.294
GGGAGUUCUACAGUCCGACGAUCUUGCAGGUGCCAAUGACUAACUUUUUGAAUUCUAUGUUGGCAUUAACAAUAAAGCAUUUUGCAAACACUGGUUAUAACUGUCUUUAUGGAGGCAGCUCUGGGAAUGGUGAUGGAAUUCUCGGGUGCCAA,0.969
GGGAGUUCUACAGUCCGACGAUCUUGGAUUUUUUUUUUUUUUAAAUAAAGACCUUAUCUGCCGAAUUUAAUUGUAGAGAUUUGAACCCGAUCAAAGAAAUUUUGAGUUCUCUCAAAUACCAUAAAAGUGUUUGUGGAAUUCUCGGGUGCCAA,0.401

# Sample 4
# Target: Interferon regulatory factor 5, full length, phosphomimetic (IRF5, Homo sapiens, UniProt Q13568-2, residues 1-514, S451D/S453D/S456D/S462D)
# Technique: protein-binding microarray
# Molecule type: double-stranded DNA, one strand shown
# Medium: in vitro
# Concentration: 940 nM top
# Notes: 60-bp whole probe
# Together with: salmon DNA 0.4 mg/ml
# Reference: random background probes
# Direction: higher = stronger binding
# All sequences stand within: GCCTAGCAC … GTCTTGATTCGCTTGACGCTGCTG
Sequence,fitted relative affinity [z-score]
ACAGCTCACGCTTTGGAAAGGTGCTAG,-0.246
TTAGGTCTCGGACTGAGTTAGTGCTAG,1.11
TTAGGTTTCCTACAGCTTTAGTGCTAG,0.609
TTAGGTTTCGTTATCGGTTAGTGCTAG,9.72
CTGCTGCAGGCAGCACGCTGGTGCTAG,-0.959
TTAGGACTGAGTCTCGGTTAGTGCTAG,2.96
TTAGGTTTCCTTACCCTTTAGTGCTAG,1.75
TTAGAACTGAGACAGGATTAGTGCTAG,-0.355
GACGATTTCAGACAGGAGACGTGCTAG,-0.313
TTAGACTTCAGTCTCGATTAGTGCTAG,2.85
TCACTTTGCTTTCTCCCACTGTGCTAG,1.74
GACGGTATTGGTCTCGGGACGTGCTAG,1.84
TTAGGTTTCGACACTGGATTAGTGCTA,7.73
TTAGGTATCCGACTGCTTTAGTGCTAG,-0.00126
GACGATCTCAGTATCTAGACGTGCTAG,0.263
TTAGGGCTCGGACTGGGTTAGTGCTAG,-0.605
TCATTTTGTGTTTTCATACTGTGCTAG,1.01
TTAGGACTGGGGTTTCGCTTAGTGCTA,2.62
TTAGATATCAGTATCTATTAGTGCTAG,0.849
GACGGTATGGGGTATCGGGACGTGCTA,0.893

# For quick reference, copied from above (sample 2):
Sequence,E-score
GAAAGATA,-0.129
CTTTGGCA,-0.13
CCCCCACC,-0.189
GATGCATA,-0.0298
